Measured values pooled from the literature.
Parts stem from different laboratories: compare values within a part only.
Chain of UniProt Q5S007 (whole entry, unmodified, looked up): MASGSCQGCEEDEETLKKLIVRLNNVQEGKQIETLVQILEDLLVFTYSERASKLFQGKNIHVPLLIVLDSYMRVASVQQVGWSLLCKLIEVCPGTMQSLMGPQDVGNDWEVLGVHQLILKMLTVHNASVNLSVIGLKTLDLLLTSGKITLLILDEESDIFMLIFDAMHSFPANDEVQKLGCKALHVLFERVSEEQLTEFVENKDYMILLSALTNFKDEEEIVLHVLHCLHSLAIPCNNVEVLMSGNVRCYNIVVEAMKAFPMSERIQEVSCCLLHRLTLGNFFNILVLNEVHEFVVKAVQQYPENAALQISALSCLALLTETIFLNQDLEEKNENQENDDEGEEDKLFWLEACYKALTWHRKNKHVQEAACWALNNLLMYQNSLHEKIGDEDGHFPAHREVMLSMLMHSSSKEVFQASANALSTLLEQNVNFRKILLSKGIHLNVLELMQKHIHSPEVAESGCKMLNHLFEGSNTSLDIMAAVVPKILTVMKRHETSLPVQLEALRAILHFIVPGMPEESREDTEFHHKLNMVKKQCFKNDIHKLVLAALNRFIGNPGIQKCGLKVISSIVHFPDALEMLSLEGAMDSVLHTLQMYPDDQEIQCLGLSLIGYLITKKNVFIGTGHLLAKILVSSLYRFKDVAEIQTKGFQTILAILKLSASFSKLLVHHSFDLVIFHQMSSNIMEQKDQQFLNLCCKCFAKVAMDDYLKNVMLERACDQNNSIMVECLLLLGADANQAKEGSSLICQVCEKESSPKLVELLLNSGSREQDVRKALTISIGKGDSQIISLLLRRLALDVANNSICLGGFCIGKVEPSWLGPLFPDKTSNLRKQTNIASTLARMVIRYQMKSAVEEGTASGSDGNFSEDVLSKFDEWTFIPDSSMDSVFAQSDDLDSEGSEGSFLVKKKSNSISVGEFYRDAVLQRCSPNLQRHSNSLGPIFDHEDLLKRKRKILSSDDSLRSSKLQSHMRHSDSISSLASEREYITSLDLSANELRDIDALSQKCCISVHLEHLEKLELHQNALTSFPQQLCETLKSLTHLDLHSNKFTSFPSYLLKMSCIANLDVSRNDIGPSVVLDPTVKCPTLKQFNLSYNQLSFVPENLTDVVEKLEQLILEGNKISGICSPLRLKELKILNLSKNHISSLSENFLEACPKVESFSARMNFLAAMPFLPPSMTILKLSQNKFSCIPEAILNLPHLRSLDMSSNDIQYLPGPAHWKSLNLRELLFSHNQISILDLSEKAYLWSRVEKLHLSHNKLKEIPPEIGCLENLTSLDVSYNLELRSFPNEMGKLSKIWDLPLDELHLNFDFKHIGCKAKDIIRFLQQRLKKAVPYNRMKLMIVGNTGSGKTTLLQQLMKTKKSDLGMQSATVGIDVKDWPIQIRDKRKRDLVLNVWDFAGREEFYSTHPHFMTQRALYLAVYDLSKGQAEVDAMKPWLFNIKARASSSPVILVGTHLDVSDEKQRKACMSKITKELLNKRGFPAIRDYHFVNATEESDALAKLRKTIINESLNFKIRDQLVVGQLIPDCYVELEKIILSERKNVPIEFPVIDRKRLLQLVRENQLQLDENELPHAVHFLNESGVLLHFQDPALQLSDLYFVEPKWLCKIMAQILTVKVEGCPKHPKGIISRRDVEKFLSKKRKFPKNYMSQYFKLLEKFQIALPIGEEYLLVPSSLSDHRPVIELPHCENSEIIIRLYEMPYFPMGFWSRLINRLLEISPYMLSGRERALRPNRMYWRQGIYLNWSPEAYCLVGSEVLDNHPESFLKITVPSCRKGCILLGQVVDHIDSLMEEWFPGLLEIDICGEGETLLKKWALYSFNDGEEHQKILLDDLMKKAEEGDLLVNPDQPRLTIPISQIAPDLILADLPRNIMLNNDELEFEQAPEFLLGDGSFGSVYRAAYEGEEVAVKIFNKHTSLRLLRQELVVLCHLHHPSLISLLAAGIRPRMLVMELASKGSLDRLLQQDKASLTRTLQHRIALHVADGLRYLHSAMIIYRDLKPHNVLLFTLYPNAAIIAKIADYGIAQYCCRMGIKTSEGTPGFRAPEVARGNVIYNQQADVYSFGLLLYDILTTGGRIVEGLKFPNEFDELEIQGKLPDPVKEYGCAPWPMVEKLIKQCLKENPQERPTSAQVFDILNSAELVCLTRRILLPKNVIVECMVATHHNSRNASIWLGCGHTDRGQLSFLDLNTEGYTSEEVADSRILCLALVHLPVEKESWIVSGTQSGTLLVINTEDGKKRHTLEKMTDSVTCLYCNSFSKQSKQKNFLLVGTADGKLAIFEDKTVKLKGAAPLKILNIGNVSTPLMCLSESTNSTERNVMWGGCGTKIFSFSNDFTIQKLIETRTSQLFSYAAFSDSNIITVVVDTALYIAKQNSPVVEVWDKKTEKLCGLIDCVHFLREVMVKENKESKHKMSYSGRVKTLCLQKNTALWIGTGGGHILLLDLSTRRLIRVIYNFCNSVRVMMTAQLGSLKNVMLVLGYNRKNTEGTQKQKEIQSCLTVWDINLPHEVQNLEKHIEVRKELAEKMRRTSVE
Chain of UniProt O43353 (whole entry, looked up): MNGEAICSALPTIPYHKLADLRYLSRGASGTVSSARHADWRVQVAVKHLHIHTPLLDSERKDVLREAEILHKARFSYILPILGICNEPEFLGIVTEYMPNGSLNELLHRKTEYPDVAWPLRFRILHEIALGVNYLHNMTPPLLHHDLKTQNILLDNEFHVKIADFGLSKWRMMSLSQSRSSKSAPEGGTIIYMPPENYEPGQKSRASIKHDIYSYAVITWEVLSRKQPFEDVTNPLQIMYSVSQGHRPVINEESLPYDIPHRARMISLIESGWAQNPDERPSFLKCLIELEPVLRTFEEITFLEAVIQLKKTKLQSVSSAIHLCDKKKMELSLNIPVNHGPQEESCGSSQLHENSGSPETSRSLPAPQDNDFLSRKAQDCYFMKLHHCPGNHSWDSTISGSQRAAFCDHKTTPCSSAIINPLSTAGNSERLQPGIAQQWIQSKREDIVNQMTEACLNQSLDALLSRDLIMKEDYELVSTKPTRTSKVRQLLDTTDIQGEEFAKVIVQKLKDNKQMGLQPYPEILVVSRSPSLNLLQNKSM
Chain of UniProt Q00534 (whole entry, looked up): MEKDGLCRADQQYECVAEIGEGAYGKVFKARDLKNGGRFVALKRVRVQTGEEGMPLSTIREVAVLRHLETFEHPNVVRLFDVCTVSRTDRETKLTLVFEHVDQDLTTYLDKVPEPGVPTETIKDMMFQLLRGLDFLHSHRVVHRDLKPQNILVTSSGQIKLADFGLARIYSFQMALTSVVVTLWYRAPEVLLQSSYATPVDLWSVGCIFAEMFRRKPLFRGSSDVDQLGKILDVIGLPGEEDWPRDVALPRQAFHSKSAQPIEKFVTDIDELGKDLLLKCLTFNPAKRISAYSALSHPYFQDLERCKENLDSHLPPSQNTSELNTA
Chain of UniProt P22612 (whole entry, looked up): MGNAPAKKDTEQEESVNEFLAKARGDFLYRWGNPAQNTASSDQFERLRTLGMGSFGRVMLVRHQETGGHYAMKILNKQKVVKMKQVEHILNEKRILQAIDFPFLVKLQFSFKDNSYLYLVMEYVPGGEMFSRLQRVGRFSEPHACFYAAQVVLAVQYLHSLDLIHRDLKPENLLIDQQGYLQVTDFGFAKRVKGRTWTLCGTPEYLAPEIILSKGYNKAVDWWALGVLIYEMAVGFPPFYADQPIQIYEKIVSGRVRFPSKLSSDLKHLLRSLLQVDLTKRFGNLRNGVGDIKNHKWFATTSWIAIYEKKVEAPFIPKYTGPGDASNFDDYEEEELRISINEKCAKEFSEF

Study 1
Target: High affinity nerve growth factor receptor (NTRK1, Homo sapiens, UniProt P04629)
Chain of UniProt P04629 (whole entry, looked up): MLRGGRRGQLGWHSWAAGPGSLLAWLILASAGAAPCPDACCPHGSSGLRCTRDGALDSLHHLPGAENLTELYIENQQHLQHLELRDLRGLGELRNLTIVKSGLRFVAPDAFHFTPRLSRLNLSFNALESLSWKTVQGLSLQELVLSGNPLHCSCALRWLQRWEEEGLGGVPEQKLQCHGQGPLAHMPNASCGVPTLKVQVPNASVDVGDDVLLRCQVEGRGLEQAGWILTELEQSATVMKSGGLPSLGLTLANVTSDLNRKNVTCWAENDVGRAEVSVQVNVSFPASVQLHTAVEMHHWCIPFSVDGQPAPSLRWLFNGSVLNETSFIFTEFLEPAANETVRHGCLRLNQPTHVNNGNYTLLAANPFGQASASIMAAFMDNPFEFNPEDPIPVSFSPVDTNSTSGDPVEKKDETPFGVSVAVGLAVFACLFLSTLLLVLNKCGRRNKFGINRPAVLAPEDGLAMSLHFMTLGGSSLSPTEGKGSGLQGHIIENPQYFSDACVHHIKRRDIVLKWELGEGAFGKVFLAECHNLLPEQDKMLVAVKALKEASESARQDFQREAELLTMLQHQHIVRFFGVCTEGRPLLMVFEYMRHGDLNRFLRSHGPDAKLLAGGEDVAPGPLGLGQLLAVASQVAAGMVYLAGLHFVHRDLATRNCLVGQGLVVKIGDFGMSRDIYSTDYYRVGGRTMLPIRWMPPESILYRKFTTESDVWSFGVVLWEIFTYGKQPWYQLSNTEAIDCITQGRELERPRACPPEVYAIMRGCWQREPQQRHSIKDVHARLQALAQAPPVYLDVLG
Read-out: enzyme activity
Action: inhibitor
Tested at: 0.5 µM
Baseline: control
Endpoint: remaining activity
SMILES = O=C1Nc2ccc(Br)cc2/C1=C/c1cc2c([nH]1)CCCC2; result = 51.8%
SMILES = O=C1NC(=O)c2c1c1c3ccccc3[nH]c1c1[nH]c3cc(Br)ccc3c21; result = 82.2%
SMILES = Oc1cccc(-c2nc(N3CCOCC3)c3oc4ncccc4c3n2)c1; result = 94.9%
SMILES = COc1ccc2c(c1)c(C1=C(c3c[nH]c4ccccc34)C(=O)NC1=O)cn2CCCN(C)C; result = 83.1%
SMILES = CN(C)S(=O)(=O)c1ccc2c(c1)/C(=C/c1cc3c([nH]1)CCCC3)C(=O)N2; result = 24.7%
SMILES = c1ccc2c(-c3ccncc3)c[nH]c2c1; result = 97%
SMILES = O=C1Nc2ccccc2/C1=C\c1c(Cl)[nH]c2ccccc12; result = 90.7%
SMILES = c1ccc(-c2n[nH]c3c2oc2ccccc23)cc1; result = 85.6%

Study 2
SMILES: O=C(NS(=O)(=O)c1ccc(NCC2CCOCC2)c([N+](=O)[O-])c1)c1ccc(N2CCN(Cc3ccc(C(F)(F)F)cc3-c3ccc(Cl)cc3)CC2)cc1Oc1cnc2[nH]ccc2c1
Read-out: cell-free assay
Method: competition with immobilised ligand
Tested at: 1 µM
Endpoint: remaining binding
target = MAP4K1 (Homo sapiens, UniProt Q92918); result = 98%
target = MAP3K5 (Homo sapiens, UniProt Q99683); result = 82%
target = Tyrosine-protein kinase ABL1, non-phosphorylated (ABL1, Homo sapiens, UniProt P00519, T315I); result = 82%
target = DAPK2 (Homo sapiens, UniProt Q9UIK4); result = 85%
target = PRPF4B (Homo sapiens, UniProt Q13523); result = 100%
target = DAPK1 (Homo sapiens, UniProt P53355); result = 100%
target = FLT4 (Homo sapiens, UniProt P35916); result = 100%
target = EGFR (Homo sapiens, UniProt P00533, G719C); result = 83%
target = ALK (Homo sapiens, UniProt Q9UM73); result = 94%
target = LRRK2 (Homo sapiens, UniProt Q5S007, G2019S); result = 88%
target = RIPK2 (Homo sapiens, UniProt O43353); result = 100%

Study 3
Structure (SMILES): O=C(Nc1cnn(-c2csc(C(=O)NC3COC3)c2)c1)Nc1ccccc1Cl
Read-out: enzyme activity
Tested at: 5 µM
Endpoint: remaining activity
target = PRKACG (Homo sapiens, UniProt P22612); baseline = untreated control; result = 102%
target = RIPK4 (Homo sapiens, UniProt P57078); action = inhibitor; result = 89.2%
target = PTK2B (Homo sapiens, UniProt Q14289); baseline = untreated control; result = 92.7%
target = Cyclin-dependent kinase 6, with cyclin D3 (CDK6, Homo sapiens, UniProt Q00534); baseline = untreated control; result = 109%
target = JAK3 (Homo sapiens, UniProt P52333); baseline = untreated control; result = 100%
target = GRK7 (Homo sapiens, UniProt Q8WTQ7); baseline = untreated control; result = 94.9%
target = LTK (Homo sapiens, UniProt P29376); action = inhibitor; result = 99.2%
target = NEK4 (Homo sapiens, UniProt P51957); baseline = untreated control; result = 107%
target = PEAK1 (Homo sapiens, UniProt Q9H792); baseline = untreated control; result = 91%

Study 4
Target: Beta-1 adrenergic receptor (ADRB1, Homo sapiens, UniProt P08588)
Chain of UniProt P08588 (whole entry, looked up): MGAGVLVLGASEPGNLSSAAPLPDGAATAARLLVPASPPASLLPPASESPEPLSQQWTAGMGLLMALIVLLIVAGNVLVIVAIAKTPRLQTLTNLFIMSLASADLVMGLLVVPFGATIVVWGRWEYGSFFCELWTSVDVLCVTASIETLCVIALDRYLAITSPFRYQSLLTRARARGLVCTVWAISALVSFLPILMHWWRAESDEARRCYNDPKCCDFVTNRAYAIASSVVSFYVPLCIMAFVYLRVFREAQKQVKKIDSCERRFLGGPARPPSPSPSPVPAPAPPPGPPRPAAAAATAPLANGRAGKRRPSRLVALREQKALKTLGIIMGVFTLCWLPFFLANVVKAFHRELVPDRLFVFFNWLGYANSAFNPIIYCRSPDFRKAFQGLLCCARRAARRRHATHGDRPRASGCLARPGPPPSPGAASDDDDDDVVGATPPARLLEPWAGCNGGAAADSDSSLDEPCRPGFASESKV
Action: agonist
Endpoint: Emax
Compound = COc1ccccc1N1CCN(C(=O)C[C@@H]2O[C@H](CNC(=O)c3ccc(N(C)C)cc3)[C@@H](O)[C@H]2O)CC1; result = 89%
Compound = COc1ccccc1N1CCN([C@@H]2[C@H](O)[C@H](CO)O[C@@H]2CNC(C)C)CC1; result = 54.3%
Compound = CC(C)(C)NCC(O)COc1cccc2c1C[C@H](O)[C@H](O)C2 (mixture of isomers); result = 62.1%
Compound = Cc1cc2c(OCC(CNC(C)(C)C)OC(=O)c3ccccc3)cccc2[nH]1 (stereo not drawn); result = 113%
Compound = COc1ccccc1N1CCN(C(=O)C[C@@H]2O[C@H](CNC(=O)c3ccccc3)[C@@H](O)[C@H]2O)CC1; result = 41.2%
Compound = CN(CCc1ccc(Cl)c(Cl)c1)CC(O)COc1ccc(N[S+](C)(=O)[O-])cc1 (stereo not drawn); result = 39.5%
Compound = Cn1c(=O)c2c(ncn2CCCNCC(O)c2cc(O)cc(O)c2)n(C)c1=O (stereo not drawn); result = 65.5%
Compound = CN(Cc1ccc2nonc2c1)Cc1ccccc1OCC(O)CN1CCCCC1 (stereo not drawn); result = 71.9%

Excerpt of the above (study 3):
target = PEAK1 (Homo sapiens, UniProt Q9H792); baseline = untreated control; result = 91%
target = NEK4 (Homo sapiens, UniProt P51957); baseline = untreated control; result = 107%
target = LTK (Homo sapiens, UniProt P29376); action = inhibitor; result = 99.2%
target = PTK2B (Homo sapiens, UniProt Q14289); baseline = untreated control; result = 92.7%
target = Cyclin-dependent kinase 6, with cyclin D3 (CDK6, Homo sapiens, UniProt Q00534); baseline = untreated control; result = 109%
